# Experimental data pooled from the literature.
# Lines come from different studies, so protocols differ. Numbers after ± are the reported error.
# Tumor necrosis factor receptor superfamily member 9/Nectin-4: Tumor necrosis factor receptor superfamily member 9/Nectin-4 (Homo sapiens, UniProt Q07011+Q96NY8)
# UniProt Q07011, sequence (whole entry, looked up): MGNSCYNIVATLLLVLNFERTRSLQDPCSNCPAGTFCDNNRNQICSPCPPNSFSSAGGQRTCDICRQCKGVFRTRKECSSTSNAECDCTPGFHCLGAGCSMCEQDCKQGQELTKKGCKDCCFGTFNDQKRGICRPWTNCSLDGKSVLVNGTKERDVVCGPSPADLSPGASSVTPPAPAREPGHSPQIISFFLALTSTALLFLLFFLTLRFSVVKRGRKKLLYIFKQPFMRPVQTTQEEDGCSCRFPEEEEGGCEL
# UniProt Q96NY8, sequence (whole entry, looked up): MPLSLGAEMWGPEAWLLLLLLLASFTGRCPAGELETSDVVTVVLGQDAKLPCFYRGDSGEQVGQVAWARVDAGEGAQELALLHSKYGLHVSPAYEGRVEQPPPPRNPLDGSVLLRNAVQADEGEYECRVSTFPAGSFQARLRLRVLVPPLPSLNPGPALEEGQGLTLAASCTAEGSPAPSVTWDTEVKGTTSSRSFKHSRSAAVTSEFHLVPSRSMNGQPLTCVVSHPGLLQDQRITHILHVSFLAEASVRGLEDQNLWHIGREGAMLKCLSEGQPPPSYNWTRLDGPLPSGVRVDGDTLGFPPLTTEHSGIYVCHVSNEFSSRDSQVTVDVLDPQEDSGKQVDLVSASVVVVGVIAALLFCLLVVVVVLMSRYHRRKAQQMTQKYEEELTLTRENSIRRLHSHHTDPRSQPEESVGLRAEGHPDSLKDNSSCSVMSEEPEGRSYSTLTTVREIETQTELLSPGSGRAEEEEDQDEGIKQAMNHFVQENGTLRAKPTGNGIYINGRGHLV
# CA9: Carbonic anhydrase 9 (CA9, Homo sapiens, UniProt Q16790)
# Gria1: Glutamate receptor 1 (Gria1, Rattus norvegicus, UniProt P19490)
# UniProt P19490, sequence (whole entry, looked up): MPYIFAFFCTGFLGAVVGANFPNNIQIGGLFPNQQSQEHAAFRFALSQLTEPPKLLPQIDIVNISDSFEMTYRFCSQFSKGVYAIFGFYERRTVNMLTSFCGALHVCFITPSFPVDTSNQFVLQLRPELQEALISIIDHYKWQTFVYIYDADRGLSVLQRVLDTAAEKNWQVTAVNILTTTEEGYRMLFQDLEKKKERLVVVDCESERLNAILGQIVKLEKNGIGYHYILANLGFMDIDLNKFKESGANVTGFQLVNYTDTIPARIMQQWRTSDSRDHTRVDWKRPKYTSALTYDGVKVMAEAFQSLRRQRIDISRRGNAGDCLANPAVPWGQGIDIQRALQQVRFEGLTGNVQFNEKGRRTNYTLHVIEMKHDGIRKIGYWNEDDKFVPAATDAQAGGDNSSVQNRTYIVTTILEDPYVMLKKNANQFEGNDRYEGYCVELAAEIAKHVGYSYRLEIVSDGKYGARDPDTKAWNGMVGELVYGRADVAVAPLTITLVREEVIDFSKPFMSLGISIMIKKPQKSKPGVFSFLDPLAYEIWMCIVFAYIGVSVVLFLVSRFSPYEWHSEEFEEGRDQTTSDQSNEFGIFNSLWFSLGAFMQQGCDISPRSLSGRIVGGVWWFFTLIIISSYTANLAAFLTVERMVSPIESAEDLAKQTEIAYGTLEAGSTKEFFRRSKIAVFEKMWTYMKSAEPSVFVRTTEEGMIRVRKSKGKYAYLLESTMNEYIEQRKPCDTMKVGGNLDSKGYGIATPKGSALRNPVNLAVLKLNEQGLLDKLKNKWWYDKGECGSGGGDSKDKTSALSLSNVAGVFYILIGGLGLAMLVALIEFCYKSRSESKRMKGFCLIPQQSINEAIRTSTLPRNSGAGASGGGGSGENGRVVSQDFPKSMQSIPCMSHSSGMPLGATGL
# UniProt P08510, sequence (whole entry, unmodified, looked up): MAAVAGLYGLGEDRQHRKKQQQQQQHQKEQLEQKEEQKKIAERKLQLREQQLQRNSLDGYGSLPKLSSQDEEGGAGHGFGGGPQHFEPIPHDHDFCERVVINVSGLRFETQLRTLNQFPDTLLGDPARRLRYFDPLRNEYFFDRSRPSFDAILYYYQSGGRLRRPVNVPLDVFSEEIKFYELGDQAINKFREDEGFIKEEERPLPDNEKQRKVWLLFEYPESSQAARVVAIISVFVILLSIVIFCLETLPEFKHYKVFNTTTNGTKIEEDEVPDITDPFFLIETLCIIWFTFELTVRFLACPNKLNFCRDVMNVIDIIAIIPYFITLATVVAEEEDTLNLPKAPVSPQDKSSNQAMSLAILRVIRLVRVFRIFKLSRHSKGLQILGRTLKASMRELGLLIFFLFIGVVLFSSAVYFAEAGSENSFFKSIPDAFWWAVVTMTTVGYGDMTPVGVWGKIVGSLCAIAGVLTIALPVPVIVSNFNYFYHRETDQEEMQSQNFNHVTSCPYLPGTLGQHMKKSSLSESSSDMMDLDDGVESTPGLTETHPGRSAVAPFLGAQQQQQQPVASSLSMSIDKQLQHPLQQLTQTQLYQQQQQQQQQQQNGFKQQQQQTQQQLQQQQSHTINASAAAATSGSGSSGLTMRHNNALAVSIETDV
# UniProt P42260, sequence (whole entry, looked up): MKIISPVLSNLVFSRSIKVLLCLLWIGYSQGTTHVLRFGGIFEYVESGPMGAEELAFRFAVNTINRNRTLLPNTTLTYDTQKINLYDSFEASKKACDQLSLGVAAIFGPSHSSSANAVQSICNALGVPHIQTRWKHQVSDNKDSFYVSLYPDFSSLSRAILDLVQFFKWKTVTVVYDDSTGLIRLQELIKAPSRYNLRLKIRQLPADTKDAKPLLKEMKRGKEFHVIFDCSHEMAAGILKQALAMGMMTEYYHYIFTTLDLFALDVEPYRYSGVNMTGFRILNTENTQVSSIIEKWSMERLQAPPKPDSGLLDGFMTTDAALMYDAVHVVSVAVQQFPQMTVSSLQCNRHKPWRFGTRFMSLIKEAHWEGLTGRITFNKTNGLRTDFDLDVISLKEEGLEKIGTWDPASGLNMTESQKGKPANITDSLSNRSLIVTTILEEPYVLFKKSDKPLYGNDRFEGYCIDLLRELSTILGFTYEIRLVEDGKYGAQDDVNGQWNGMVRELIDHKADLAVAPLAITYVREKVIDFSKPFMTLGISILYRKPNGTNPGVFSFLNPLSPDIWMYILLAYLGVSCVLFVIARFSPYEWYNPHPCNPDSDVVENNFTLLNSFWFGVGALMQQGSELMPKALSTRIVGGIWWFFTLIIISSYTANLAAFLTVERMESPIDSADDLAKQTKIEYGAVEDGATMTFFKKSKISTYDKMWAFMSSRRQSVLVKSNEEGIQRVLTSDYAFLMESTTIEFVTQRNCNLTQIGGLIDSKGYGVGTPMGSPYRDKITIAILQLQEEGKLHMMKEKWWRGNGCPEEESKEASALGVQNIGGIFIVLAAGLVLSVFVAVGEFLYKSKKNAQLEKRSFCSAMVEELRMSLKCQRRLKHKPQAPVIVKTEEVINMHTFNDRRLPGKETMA
# UniProt O43193, sequence (whole entry, looked up): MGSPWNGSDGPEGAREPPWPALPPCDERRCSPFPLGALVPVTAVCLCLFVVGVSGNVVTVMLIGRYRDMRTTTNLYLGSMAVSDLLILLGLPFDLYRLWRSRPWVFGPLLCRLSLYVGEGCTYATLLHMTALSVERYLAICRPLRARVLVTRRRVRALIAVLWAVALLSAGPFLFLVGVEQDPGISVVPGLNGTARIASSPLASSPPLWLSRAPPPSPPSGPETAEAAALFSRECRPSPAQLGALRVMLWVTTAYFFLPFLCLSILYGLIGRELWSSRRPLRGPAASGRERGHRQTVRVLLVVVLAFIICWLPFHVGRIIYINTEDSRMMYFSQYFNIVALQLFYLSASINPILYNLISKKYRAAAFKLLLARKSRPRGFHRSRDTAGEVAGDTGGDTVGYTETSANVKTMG
# UniProt P50613, sequence (whole entry, looked up): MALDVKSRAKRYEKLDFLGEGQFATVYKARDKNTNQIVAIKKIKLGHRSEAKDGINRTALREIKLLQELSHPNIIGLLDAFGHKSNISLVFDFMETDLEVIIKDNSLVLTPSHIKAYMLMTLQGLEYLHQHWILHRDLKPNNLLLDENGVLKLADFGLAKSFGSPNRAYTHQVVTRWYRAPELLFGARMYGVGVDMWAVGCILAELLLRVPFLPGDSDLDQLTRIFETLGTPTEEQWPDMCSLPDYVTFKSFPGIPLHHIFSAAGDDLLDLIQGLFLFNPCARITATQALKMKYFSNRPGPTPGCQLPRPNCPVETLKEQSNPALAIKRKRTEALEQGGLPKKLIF
SMILES,target or system,assay,system,setting,scale,measurement,value
CCCC[C@@H]1NC(=O)[C@H](Cc2ccc(O)cc2)NC(=O)[C@H](C)N(C)C(=O)[C@H](CC(=O)O)NC(=O)[C@H](C)NC(=O)[C@H](Cc2ccccc2)NC(=O)[C@@H]2CSCCC(=O)N3CN(CN(C3)C(=O)CCSC[C@H](NC(C)=O)C(=O)N[C@@H](CC(C)(C)C)C(=O)N3CCC[C@H]3C(=O)N[C@@H](CCC(=O)O)C(=O)N[C@H](CCCCNC(=O)CCc3cn(CCOCCOCCOCCOCCOCCC(=O)N[C@H]4CSCCC(=O)N5CN6CN(C5)C(=O)CCSC[C@H](NC(=O)[C@@H](CC(=O)O)NC(=O)[C@H](Cc5cccc7ccccc57)NC(=O)[C@@H]5CCCN5C4=O)C(=O)N[C@@H](CCSC)C(=O)N[C@@H](CCCCNC(=N)N)C(=O)N[C@@H](CC(=O)O)C(=O)N[C@@H](Cc4c[nH]c5ccccc45)C(=O)N[C@@H](CO)C(=O)N[C@@H]([C@@H](C)O)C(=O)N4CCC[C@H]4C(=O)N4C[C@H](O)C[C@H]4C(=O)N[C@@H](Cc4c[nH]c5ccccc45)C(=O)N[C@H](C(N)=O)CSCCC6=O)nn3)C(=O)N3CCC[C@H]3C(=O)N[C@@H](Cc3ccc(O)cc3)C(=O)N2)C(=O)CCSC[C@@H](C(N)=O)NC1=O,Tumor necrosis factor receptor superfamily member 9/Nectin-4,"reporter gene, agonist",HT-1376 coculture with reporter cells,,,EC50,6.48 nM
COc1cc(Nc2ncc(F)c(Nc3ccc4c(n3)NC(=O)C(C)(C)O4)n2)cc(OC)c1OC,"Motilin receptor (MLNR, Homo sapiens, UniProt O43193)",,,,,IC50,> 10000 nM
COCC1OC2CC(CC(N)C(=O)O)(C(=O)O)OC2C(O)C1O (stereo not drawn),"Grik2 (Rattus norvegicus, UniProt P42260)",binding,HEK293T/17 membranes,with: [3H]kainate,,Ki,2430 nM
CC(Nc1nc(N2CCN(C)CC2)nc2ccccc12)c1ccccc1 (stereo not drawn),Vero-E6,CellTiter-Glo ATP,,"72 h, second round 5-point","relative to: DMSO 0%, hyamine -100%, more negative, more toxic",maximum response,0.252%
O=C(Nc1ccc2c(c1)C=CCP(=O)(O)O2)c1cccs1,CA9,,,,,Ki,32.8 nM
NC(CC1(C(=O)O)CC2OC(CO)C(O)C(N)C2O1)C(=O)O (stereo not drawn),Gria1,[3H]AMPA displacement,HEK-293T/17 membranes,,,Ki,> 10000 nM
CCCC[C@@H]1NC(=O)[C@H](Cc2ccc(O)cc2)NC(=O)[C@@H]2CCCN2C(=O)[C@H](CC(=O)O)NC(=O)[C@H](C)NC(=O)[C@H](Cc2ccccc2)NC(=O)[C@@H]2CSCCC(=O)N3CN(CN(C3)C(=O)CCSC[C@@H](C(=O)N[C@@H](C)C(N)=O)NC1=O)C(=O)CCSC[C@H](NC(=O)[C@H](C)NC(C)=O)C(=O)N[C@@H]([C@@H](C)CC)C(=O)N[C@@H](CCC(=O)O)C(=O)N[C@@H](CCC(=O)O)C(=O)N[C@H](CCCCNC(=O)CCc1cn(CCOCCOCCOCCN(CCOCCOCCOCCC(=O)N[C@H]3CSCCC(=O)N4CN5CN(C4)C(=O)CCSC[C@H](NC(=O)[C@@H](CC(=O)O)NC(=O)[C@H](Cc4cccc6ccccc46)NC(=O)[C@@H]4CCCN4C3=O)C(=O)N[C@@H](CCSC)C(=O)N[C@@H](CCCCNC(=N)N)C(=O)N[C@@H](CC(=O)O)C(=O)N[C@@H](Cc3c[nH]c4ccccc34)C(=O)N[C@@H](CO)C(=O)N[C@@H]([C@@H](C)O)C(=O)N3CCC[C@H]3C(=O)N3C[C@H](O)C[C@H]3C(=O)N[C@@H](Cc3c[nH]c4ccccc34)C(=O)N[C@H](C(N)=O)CSCCC5=O)CCOCCOCCOCCn3cc(CCC(=O)NCCCC[C@H]4NC(=O)[C@H](CCC(=O)O)NC(=O)[C@H](CCC(=O)O)NC(=O)[C@H]([C@@H](C)CC)NC(=O)[C@@H](NC(=O)[C@H](C)NC(C)=O)CSCCC(=O)N5CN6CN(C5)C(=O)CCSC[C@H](NC(=O)[C@H](Cc5ccc(O)cc5)NC(=O)[C@H](CCC(N)=O)NC4=O)C(=O)N[C@@H](Cc4ccccc4)C(=O)N[C@@H](C)C(=O)N[C@@H](CC(=O)O)C(=O)N4CCC[C@H]4C(=O)N[C@@H](Cc4ccc(O)cc4)C(=O)N[C@@H](CCCC)C(=O)N[C@H](C(=O)N[C@@H](C)C(N)=O)CSCCC6=O)nn3)nn1)C(=O)N[C@@H](CCC(N)=O)C(=O)N[C@@H](Cc1ccc(O)cc1)C(=O)N2,Tumor necrosis factor receptor superfamily member 9/Nectin-4,"reporter gene, agonist",HT-1376 coculture with reporter cells,,,EC50,0.9 nM
O=C(NCCCN1CCCCC1)c1cc(Sc2ccc(Cl)cc2)nc2ccccc12,Vero-E6,CellTiter-Glo ATP,,"concentration not given, 72 h, retest 8-point duplicates","relative to: DMSO 0%, hyamine -100%, more negative, more toxic",cytotoxicity efficacy,0%
CSCC[C@H](N)C(=O)N[C@@H](C)C(=O)N[C@@H](C)C(=O)N[C@H](C(=O)N[C@@H](C)C(=O)NCC(=O)N[C@@H](CC(C)C)C(=O)N[C@@H](Cc1ccc(O)cc1)C(=O)NCC(=O)N[C@@H](CC(C)C)C(=O)NCC(=O)N[C@@H](CCC(=O)O)C(=O)N[C@@H](CC(=O)O)C(=O)N[C@@H](CCCNC(=N)N)C(=O)N[C@@H](CCC(N)=O)C(=O)N[C@@H](Cc1c[nH]cn1)C(=O)N[C@@H](CCCNC(=N)N)C(=O)N[C@@H](CCCCN)C(=O)N[C@@H](CCCCN)C(=O)N[C@@H](CCC(N)=O)C(N)=O)C(C)C,"Sh, DEL6-46 (Drosophila melanogaster, UniProt P08510)","ion current, blocker, inside-out patch clamp",Xenopus oocytes,"range over 1 µM, pH 7.0, 22–24 °C, at 0 mV",,Kd,3200 nM
NC(CC1(C(=O)O)CC2OC(CO)C(O)C(O)C2O1)C(=O)O (stereo not drawn),Gria1,[3H]AMPA displacement,HEK-293T/17 membranes,,,Ki,> 10000 nM
O=C(Nc1cccc(F)c1)Nc1ccc2c(c1)C=CCP(=O)(O)O2,CA9,,,,,Ki,51.8 nM
C[C@H]1CN(c2n[nH]c3nc(N[C@H]4CC[C@H](NS(=O)(=O)CCC(F)(F)F)CC4)ncc23)CCO1,"CDK7 (Homo sapiens, UniProt P50613)","competitor, Kinobeads competition","HEK293, K562, placenta extract",,,IC50,2400 nM
O=C(Nc1ccc2c(c1)C=CCP(=O)(O)O2)c1ccc2ccccc2c1,CA9,,,,,Ki,20.1 nM
CC(C)C[C@@H]1NC(=O)[C@H](CC(C)C)NC(=O)[C@H](Cc2c[nH]c3ccccc23)NC(=O)[C@H](CO)NC(=O)[C@H](Cc2c[nH]c3ccccc23)NC(=O)[C@@H]2CCCN2C(=O)[C@H](CC(C)C)NC(=O)[C@H](Cc2c[nH]cn2)NC(=O)[C@@H]2CCCN2C(=O)[C@H](CC(N)=O)NC(=O)[C@H](C)NC(=O)[C@H](Cc2ccc(O)cc2)NC(=O)[C@H](CS)NC(=O)[C@H](CCCCNC(=O)CN2CCN(CC(=O)O)CCN(CC(=O)O)CCN(CC(=O)O)CC2)NC1=O [lutetium-177 labelled],,,"Balb/c mouse, female, 4T1 tumour, kidney","intravenous, 3.7 MBq, 4 h",,tissue uptake,8.23 ± 1.47 %ID
CCCC[C@@H]1NC(=O)[C@H](Cc2ccc(O)cc2)NC(=O)[C@@H]2CCCN2C(=O)[C@H](CC(=O)O)NC(=O)[C@H](C)NC(=O)[C@H](Cc2ccccc2)NC(=O)[C@@H]2CSCCC(=O)N3CN(CN(C3)C(=O)CCSC[C@@H](C(=O)N[C@@H](C)C(N)=O)NC1=O)C(=O)CCSC[C@H](NC(C)=O)C(=O)N[C@@H](CC(C)(C)C)C(=O)N1CCC[C@H]1C(=O)N[C@@H](CCC(=O)O)C(=O)N[C@H](CCCCNC(=O)CCc1cn(CCOCCOCCOCCOCCOCCC(=O)NCCCC[C@H]3NC(=O)[C@H](Cc4cccc5ccccc45)NC(=O)[C@@H]4CCCN4C(=O)[C@@H](NC(C)=O)CSCCC(=O)N4CN5CN(C4)C(=O)CCSC[C@H](NC3=O)C(=O)N[C@@H](CCSC)C(=O)N[C@@H](CCCCNC(=N)N)C(=O)N[C@@H](CCC(=O)O)C(=O)N[C@@H](Cc3c[nH]c4ccccc34)C(=O)N[C@@H](CO)C(=O)N[C@@H]([C@@H](C)O)C(=O)N3CCC[C@H]3C(=O)N3C[C@H](O)C[C@H]3C(=O)N[C@@H](Cc3c[nH]c4ccccc34)C(=O)N[C@H](C(N)=O)CSCCC5=O)nn1)C(=O)N1CCC[C@H]1C(=O)N[C@@H](Cc1ccc(O)cc1)C(=O)N2,Tumor necrosis factor receptor superfamily member 9/Nectin-4,"reporter gene, agonist",HT-1376 coculture with reporter cells,,,EC50,1.17 nM
